Measurements collected from several papers.
Each numbered part is a random draw from the data of one study; scales do not carry over between parts.
Chain of UniProt Q02779 (whole entry, looked up): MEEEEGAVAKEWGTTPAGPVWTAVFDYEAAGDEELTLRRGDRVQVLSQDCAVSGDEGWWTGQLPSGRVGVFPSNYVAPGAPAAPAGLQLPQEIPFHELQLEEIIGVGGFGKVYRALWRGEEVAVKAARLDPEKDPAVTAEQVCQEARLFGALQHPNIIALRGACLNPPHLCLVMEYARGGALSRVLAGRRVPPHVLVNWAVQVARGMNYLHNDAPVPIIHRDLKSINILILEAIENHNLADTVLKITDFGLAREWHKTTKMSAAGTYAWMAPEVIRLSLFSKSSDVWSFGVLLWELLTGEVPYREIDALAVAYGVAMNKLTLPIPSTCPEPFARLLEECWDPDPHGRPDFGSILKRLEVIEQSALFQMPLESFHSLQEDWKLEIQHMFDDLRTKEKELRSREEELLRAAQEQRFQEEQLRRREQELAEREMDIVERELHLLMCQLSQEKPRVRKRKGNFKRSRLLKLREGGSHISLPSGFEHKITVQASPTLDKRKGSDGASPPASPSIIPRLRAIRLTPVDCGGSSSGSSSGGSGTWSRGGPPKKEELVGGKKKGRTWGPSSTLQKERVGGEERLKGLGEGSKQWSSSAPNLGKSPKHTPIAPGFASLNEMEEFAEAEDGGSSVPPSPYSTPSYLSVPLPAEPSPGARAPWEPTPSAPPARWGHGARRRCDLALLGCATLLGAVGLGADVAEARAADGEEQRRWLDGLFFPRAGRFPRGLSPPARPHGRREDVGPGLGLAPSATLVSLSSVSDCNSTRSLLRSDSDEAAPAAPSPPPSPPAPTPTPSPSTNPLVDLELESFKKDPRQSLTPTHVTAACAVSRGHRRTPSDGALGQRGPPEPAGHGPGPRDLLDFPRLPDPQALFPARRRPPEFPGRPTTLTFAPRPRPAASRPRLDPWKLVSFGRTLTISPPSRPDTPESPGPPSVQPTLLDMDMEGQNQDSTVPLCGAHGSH
Chain of UniProt Q9H093 (whole entry, looked up): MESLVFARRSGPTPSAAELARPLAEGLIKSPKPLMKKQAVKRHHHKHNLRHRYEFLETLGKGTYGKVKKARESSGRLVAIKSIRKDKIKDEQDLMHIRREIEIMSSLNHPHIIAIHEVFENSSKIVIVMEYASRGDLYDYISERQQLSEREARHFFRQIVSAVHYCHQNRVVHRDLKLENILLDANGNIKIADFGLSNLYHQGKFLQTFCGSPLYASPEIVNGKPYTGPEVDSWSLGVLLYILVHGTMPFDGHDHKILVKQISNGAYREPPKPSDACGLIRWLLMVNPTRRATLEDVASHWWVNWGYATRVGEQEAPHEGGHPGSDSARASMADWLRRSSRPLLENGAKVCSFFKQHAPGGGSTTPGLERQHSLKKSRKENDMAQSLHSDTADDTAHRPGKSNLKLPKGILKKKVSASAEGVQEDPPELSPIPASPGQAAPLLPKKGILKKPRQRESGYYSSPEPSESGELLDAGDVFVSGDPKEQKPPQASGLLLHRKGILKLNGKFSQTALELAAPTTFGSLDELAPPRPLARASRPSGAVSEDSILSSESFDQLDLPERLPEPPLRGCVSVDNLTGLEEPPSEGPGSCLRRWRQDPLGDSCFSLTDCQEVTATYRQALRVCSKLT
Chain of UniProt O00506 (whole entry, looked up): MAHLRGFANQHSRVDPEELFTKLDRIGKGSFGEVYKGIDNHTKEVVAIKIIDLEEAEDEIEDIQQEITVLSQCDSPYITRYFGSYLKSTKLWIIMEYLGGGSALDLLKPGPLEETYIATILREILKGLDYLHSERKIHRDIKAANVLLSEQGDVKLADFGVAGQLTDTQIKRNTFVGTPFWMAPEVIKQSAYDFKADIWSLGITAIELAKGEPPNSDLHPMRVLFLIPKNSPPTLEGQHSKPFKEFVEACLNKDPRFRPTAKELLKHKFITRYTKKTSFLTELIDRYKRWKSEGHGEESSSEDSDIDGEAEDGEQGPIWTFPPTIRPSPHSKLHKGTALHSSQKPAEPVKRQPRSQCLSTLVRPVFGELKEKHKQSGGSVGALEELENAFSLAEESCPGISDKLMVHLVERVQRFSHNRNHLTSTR
Chain of UniProt Q9Y2H9 (whole entry, looked up): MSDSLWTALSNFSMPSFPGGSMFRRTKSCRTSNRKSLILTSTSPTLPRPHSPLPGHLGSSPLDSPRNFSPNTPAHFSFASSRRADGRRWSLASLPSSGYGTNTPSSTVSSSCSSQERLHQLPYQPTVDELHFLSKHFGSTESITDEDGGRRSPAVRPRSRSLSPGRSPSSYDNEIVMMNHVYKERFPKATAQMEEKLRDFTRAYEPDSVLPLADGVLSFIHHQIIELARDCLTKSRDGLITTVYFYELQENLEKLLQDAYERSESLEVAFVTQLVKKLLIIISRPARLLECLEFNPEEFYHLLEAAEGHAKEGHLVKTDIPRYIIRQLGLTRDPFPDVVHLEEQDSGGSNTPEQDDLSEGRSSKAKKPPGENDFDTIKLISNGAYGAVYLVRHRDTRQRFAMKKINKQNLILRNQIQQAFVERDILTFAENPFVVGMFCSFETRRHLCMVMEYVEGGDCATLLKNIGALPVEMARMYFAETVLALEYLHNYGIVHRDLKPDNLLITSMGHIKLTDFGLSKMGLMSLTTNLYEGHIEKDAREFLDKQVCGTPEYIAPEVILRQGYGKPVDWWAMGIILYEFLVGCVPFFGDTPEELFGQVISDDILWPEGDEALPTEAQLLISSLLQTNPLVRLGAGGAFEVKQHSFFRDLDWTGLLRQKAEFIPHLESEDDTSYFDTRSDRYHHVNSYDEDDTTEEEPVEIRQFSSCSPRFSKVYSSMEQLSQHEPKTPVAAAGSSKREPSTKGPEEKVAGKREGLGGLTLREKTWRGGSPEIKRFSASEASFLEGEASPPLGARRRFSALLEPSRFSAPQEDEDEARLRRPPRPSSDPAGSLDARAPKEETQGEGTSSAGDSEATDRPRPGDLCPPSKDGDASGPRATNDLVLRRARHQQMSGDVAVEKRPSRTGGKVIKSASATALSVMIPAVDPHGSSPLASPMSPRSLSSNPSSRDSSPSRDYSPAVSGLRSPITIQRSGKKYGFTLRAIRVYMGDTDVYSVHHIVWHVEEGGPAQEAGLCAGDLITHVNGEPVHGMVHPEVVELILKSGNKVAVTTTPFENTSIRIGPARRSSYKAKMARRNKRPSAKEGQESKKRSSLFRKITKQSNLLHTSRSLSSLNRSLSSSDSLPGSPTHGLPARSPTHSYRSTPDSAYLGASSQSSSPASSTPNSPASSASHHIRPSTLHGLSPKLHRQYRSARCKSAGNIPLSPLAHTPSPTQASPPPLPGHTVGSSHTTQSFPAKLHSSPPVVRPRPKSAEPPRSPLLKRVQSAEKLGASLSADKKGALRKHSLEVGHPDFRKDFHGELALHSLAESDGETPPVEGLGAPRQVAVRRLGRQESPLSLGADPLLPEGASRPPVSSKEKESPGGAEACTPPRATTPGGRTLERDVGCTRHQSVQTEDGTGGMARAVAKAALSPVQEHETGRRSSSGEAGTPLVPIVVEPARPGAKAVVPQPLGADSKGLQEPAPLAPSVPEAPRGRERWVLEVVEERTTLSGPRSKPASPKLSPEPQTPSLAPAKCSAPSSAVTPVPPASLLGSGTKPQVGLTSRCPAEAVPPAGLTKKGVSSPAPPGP
Chain of UniProt Q9P1W9 (whole entry, looked up): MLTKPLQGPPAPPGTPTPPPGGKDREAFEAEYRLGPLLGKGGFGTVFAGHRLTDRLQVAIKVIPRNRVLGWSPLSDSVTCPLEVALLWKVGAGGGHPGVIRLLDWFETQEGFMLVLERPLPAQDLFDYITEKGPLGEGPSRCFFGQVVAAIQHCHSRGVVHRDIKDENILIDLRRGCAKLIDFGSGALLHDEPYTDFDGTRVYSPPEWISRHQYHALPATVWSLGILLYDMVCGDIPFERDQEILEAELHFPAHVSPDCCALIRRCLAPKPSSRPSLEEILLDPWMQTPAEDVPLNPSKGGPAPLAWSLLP
Chain of UniProt Q9P289 (whole entry, looked up): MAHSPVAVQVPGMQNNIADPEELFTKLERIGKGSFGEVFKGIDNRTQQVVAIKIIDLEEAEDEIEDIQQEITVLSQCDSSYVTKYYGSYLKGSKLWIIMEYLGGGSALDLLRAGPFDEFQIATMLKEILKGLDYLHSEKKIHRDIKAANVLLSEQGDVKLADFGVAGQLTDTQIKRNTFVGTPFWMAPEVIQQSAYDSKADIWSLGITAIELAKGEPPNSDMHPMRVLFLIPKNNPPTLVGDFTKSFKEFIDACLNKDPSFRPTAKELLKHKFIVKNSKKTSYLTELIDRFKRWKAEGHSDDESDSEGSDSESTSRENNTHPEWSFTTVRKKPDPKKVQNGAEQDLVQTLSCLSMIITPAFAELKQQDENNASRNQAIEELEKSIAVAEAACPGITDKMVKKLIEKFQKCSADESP

Series 1 — cell line: HaCaT; tested at: 100 µM; time: 18 h
`CCCCc1oc2ccc(NS(C)(=O)=O)cc2c1C(=O)c1ccc(OCCCN(CCCC)CCCC)cc1` has a viability of 20.7%.
`COc1ccc2cc(CCC(C)=O)ccc2c1` has a viability of 96%.
With `CO[C@@]1(NC(=O)Cc2cccs2)C(=O)N2C(C(=O)O)=C(COC(N)=O)CS[C@@H]21` the viability was 91.5%.
`O=C(Nc1ccccc1)c1ccccc1O` has a viability of 45.2%.
The viability of `C#C[C@]1(O)CC[C@H]2[C@@H]3CCc4cc(OC)ccc4[C@H]3CC[C@@]21C` is reported as 28.2%.
`NS(=O)(=O)c1cc2c(cc1C(F)(F)F)NC(Cc1ccccc1)NS2(=O)=O` (stereo not shown) has a viability of 75.7%.
`CCOc1ccc(Cc2nccc3cc(OCC)c(OCC)cc23)cc1OCC` gave a viability of 48.8%.
`CC1=C(/C=C/C(C)=C/C=C/C(C)=C/C(=O)O)C(C)(C)CCC1` gave a viability of 70.7%.
With `COc1cc2c(cc1OC)CC(=O)N(CCCN(C)C[C@H]1Cc3cc(OC)c(OC)cc31)CC2` the viability was 113%.

Series 2 — technique: phase 2a trial; host: idiopathic pulmonary fibrosis patients
Compound: CC(C)n1cnc(-c2ccc(F)cc2)c1-c1ncc(C(=O)Nc2ccc(N3CCN(C)CC3)cc2)[nH]1
60 mg once daily, grade 4 emergent event — “patients with osteoporosis”: 0%.
60 mg once daily, grade 2 emergent event — “patients with osteoporosis”: 0%.
30 mg once daily, grade 2 emergent event — “patients with osteoporosis”: 0%.
For 60 mg once daily, grade 5 emergent event: “patients with osteoporosis” read 0%.
For 30 mg once daily, grade 5 emergent event: “patients with osteoporosis” read 0%.
all arms pooled, grade 4 emergent event — “patients with osteoporosis”: 0%.
The “patients with osteoporosis” was 0% (60 mg once daily, grade 3 emergent event).

Series 3 — effect on: enzyme activity; action: inhibitor; tested at: 0.5 µM; baseline: control
Target: Serine/threonine-protein kinase B-raf (BRAF, Homo sapiens, UniProt P15056)
Chain of UniProt P15056 (whole entry, looked up): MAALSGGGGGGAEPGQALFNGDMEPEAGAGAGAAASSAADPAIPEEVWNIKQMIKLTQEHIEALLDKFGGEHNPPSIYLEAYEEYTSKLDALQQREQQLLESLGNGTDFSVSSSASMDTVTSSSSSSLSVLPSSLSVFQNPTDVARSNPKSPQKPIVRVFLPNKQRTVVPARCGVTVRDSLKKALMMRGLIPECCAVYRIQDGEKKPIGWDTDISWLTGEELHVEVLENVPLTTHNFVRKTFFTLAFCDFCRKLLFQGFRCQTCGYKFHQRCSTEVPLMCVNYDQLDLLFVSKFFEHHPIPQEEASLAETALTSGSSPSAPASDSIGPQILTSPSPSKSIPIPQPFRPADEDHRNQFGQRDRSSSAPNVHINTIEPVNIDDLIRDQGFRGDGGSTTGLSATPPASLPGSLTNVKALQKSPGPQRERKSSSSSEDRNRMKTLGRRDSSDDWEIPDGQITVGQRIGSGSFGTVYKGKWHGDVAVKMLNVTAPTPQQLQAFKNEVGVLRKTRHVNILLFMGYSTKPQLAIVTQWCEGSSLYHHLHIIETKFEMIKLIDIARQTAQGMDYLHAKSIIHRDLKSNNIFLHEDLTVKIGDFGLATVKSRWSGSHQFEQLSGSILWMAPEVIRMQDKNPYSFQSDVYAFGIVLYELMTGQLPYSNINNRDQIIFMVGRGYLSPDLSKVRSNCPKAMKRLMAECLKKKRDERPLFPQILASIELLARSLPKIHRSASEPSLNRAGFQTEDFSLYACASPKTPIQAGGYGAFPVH
With `CC(C)n1cnc2c(Nc3cccc(Cl)c3)nc(NCCO)nc21` the remaining activity was 97%.
With `CCN(CC)CCCCN1c2ccccc2Oc2ccc(Cl)cc21` the remaining activity was 98.8%.
`CC(C)N(CCC(=O)c1ccc2ccccc2c1)Cc1ccccc1` gave a remaining activity of 95.6%.
`N#CC(c1ccnc(NCCc2cccnc2)n1)c1nc2ccccc2s1` (stereo not shown) gave a remaining activity of 96.6%.
The remaining activity of `CCCCc1c(-c2ccc(O)cc2)[nH]c2nccnc12` is reported as 99.3%.
With `COc1cc2c(Nc3ccc(Br)cc3F)ncnc2cc1OCC1CCN(C)CC1` the remaining activity was 94.8%.
`Nc1nc(Nc2ccc(S(N)(=O)=O)cc2)nn1C(=S)Nc1c(F)cccc1F` has a remaining activity of 87.2%.

Series 4 — effect on: cell-free assay; technique: competition with immobilised ligand; tested at: 1 µM
Compound: CO[C@H]1CC[C@H](CNc2ccc(S(=O)(=O)NC(=O)c3ccc(N4CCN(CC5=C(c6ccc(Cl)cc6)CC(C)(C)CC5)CC4)cc3Oc3cnc4[nH]ccc4c3)cc2[N+](=O)[O-])CC1
Serine/threonine-protein kinase 25 (STK25, Homo sapiens, UniProt O00506) — remaining binding: 83%.
The remaining binding was 90% (Ephrin type-A receptor 3 (EPHA3, Homo sapiens, UniProt P29320)).
The remaining binding was 95% (NUAK family SNF1-like kinase 2 (NUAK2, Homo sapiens, UniProt Q9H093)).
Mitogen-activated protein kinase kinase kinase 10 (MAP3K10, Homo sapiens, UniProt Q02779) — remaining binding: 89%.
It gave 88% for remaining binding (Serine/threonine-protein kinase pim-2 (PIM2, Homo sapiens, UniProt Q9P1W9)).
For Fibroblast growth factor receptor 3 (FGFR3, Homo sapiens, UniProt P22607, G697C): remaining binding read 100%.
It gave 60% for remaining binding (Serine/threonine-protein kinase TBK1 (TBK1, Homo sapiens, UniProt Q9UHD2)).
For Microtubule-associated serine/threonine-protein kinase 1 (MAST1, Homo sapiens, UniProt Q9Y2H9): remaining binding read 96%.
For Serine/threonine-protein kinase 26 (STK26, Homo sapiens, UniProt Q9P289): remaining binding read 97%.
It gave 93% for remaining binding (5'-AMP-activated protein kinase catalytic subunit alpha-2 (PRKAA2, Homo sapiens, UniProt P54646)).
Serine/threonine-protein kinase mTOR (MTOR, Homo sapiens, UniProt P42345) — remaining binding: 50%.

Repeated from above (series 3):
With `CC(C)n1cnc2c(Nc3cccc(Cl)c3)nc(NCCO)nc21` the remaining activity was 97%.
With `COc1cc2c(Nc3ccc(Br)cc3F)ncnc2cc1OCC1CCN(C)CC1` the remaining activity was 94.8%.
With `CCN(CC)CCCCN1c2ccccc2Oc2ccc(Cl)cc21` the remaining activity was 98.8%.
`CC(C)N(CCC(=O)c1ccc2ccccc2c1)Cc1ccccc1` gave a remaining activity of 95.6%.
`N#CC(c1ccnc(NCCc2cccnc2)n1)c1nc2ccccc2s1` (stereo not shown) gave a remaining activity of 96.6%.
